# Measurements collected from several papers.
# Lines come from different studies, so protocols differ. “And” joins repeats or separate records; there may be more than shown.
# lasR: Transcriptional activator protein LasR (lasR, Pseudomonas aeruginosa, UniProt P25084)
# UniProt P25084, sequence (whole entry, looked up): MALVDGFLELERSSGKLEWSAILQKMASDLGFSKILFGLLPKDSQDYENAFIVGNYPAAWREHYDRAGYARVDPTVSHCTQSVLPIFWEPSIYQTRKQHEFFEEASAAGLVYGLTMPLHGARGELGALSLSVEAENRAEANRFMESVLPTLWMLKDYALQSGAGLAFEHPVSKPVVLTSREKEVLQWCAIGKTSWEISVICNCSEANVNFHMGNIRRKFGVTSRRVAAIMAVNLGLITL
# Uncharacterized hydrolase SAUSA300_2518: Uncharacterized hydrolase SAUSA300_2518 (Staphylococcus aureus, UniProt Q2FDS6)
# UniProt Q2FDS6, sequence (whole entry, looked up): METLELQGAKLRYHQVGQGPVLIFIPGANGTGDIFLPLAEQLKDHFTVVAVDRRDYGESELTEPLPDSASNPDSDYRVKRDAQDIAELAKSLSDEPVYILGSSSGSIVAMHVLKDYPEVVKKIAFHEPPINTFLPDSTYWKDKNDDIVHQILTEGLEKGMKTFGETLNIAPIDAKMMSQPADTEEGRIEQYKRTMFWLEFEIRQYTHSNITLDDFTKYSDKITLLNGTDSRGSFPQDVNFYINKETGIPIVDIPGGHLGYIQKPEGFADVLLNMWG
# UniProt Q13370, sequence (whole entry, looked up): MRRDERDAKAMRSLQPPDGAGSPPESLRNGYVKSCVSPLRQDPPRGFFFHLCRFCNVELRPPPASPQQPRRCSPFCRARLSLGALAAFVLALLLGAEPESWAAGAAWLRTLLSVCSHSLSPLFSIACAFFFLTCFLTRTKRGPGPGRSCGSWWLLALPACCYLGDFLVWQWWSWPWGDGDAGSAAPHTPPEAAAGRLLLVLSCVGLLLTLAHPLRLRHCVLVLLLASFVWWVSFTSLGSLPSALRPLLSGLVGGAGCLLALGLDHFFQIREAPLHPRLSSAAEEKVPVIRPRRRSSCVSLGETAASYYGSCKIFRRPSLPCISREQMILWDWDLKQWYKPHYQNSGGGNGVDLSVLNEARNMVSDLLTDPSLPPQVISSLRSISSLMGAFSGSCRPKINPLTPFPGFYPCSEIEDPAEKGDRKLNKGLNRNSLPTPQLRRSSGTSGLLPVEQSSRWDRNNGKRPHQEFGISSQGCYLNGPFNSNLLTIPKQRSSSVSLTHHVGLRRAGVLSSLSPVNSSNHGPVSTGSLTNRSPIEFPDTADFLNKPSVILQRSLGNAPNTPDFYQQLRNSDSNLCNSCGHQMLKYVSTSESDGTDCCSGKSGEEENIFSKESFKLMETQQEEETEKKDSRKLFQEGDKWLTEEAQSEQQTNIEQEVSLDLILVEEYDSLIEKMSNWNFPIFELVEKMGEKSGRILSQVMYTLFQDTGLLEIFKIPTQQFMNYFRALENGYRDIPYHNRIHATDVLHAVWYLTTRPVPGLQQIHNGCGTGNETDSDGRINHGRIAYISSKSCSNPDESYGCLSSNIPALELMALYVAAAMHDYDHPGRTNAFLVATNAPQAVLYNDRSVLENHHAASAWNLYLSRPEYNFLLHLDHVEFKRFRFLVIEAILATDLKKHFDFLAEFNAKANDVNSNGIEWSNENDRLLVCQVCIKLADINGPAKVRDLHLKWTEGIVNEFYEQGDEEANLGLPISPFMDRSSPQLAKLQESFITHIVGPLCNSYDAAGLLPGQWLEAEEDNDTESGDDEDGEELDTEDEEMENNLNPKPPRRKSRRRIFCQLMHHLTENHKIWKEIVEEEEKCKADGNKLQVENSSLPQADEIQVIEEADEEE
# UniProt P28566, sequence (whole entry, looked up): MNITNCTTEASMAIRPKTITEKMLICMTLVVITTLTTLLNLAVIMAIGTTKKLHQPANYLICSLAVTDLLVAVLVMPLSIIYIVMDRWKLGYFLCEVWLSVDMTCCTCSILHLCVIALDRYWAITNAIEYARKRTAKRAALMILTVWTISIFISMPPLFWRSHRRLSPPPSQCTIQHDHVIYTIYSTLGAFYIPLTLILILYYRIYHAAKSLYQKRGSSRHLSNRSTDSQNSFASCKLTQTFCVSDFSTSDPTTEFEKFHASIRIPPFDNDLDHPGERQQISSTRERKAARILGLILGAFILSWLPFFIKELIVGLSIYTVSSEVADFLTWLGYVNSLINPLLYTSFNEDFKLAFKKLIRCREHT
# UniProt Q9UBF8, sequence (whole entry, looked up): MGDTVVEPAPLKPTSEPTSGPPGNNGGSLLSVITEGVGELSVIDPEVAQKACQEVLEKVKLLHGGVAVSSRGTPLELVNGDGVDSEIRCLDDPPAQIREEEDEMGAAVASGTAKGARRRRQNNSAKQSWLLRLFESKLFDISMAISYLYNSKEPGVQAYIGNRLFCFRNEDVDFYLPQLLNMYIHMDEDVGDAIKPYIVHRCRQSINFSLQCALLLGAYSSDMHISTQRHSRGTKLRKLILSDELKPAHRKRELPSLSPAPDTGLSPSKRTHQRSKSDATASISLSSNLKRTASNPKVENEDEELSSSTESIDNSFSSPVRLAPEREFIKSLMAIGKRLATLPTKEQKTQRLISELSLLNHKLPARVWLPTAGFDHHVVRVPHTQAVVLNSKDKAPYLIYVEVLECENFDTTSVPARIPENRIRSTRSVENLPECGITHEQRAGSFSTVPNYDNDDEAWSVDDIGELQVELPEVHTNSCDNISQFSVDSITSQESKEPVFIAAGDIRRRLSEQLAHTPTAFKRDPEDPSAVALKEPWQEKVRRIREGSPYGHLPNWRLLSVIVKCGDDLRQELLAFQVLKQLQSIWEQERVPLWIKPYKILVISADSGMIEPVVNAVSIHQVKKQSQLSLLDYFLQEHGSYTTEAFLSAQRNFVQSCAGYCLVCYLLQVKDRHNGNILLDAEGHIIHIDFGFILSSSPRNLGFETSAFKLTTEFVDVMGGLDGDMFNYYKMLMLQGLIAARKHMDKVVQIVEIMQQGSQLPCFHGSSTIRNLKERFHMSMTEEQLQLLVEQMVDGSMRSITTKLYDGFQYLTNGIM
# UniProt Q08499, sequence (whole entry, looked up): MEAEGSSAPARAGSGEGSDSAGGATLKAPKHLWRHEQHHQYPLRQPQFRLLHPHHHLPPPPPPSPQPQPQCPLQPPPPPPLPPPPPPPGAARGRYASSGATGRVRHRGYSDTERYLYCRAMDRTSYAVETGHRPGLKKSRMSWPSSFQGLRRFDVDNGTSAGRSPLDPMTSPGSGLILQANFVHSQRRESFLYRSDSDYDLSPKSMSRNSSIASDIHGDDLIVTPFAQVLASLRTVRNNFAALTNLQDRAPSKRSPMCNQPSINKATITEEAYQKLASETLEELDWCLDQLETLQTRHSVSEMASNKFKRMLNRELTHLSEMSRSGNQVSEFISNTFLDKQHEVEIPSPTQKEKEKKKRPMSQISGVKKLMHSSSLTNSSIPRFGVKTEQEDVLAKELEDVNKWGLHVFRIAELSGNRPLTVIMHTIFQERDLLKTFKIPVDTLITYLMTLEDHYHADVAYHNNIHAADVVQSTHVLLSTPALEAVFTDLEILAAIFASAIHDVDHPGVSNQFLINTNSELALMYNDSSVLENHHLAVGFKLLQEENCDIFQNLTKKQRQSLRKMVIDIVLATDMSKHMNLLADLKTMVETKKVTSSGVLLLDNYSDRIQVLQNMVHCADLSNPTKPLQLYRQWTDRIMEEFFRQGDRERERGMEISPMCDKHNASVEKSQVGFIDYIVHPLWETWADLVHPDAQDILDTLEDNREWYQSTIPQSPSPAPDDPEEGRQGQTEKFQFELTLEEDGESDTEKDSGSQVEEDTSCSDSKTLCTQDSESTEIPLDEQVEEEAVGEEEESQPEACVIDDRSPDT
# UniProt P35916, sequence (whole entry, looked up): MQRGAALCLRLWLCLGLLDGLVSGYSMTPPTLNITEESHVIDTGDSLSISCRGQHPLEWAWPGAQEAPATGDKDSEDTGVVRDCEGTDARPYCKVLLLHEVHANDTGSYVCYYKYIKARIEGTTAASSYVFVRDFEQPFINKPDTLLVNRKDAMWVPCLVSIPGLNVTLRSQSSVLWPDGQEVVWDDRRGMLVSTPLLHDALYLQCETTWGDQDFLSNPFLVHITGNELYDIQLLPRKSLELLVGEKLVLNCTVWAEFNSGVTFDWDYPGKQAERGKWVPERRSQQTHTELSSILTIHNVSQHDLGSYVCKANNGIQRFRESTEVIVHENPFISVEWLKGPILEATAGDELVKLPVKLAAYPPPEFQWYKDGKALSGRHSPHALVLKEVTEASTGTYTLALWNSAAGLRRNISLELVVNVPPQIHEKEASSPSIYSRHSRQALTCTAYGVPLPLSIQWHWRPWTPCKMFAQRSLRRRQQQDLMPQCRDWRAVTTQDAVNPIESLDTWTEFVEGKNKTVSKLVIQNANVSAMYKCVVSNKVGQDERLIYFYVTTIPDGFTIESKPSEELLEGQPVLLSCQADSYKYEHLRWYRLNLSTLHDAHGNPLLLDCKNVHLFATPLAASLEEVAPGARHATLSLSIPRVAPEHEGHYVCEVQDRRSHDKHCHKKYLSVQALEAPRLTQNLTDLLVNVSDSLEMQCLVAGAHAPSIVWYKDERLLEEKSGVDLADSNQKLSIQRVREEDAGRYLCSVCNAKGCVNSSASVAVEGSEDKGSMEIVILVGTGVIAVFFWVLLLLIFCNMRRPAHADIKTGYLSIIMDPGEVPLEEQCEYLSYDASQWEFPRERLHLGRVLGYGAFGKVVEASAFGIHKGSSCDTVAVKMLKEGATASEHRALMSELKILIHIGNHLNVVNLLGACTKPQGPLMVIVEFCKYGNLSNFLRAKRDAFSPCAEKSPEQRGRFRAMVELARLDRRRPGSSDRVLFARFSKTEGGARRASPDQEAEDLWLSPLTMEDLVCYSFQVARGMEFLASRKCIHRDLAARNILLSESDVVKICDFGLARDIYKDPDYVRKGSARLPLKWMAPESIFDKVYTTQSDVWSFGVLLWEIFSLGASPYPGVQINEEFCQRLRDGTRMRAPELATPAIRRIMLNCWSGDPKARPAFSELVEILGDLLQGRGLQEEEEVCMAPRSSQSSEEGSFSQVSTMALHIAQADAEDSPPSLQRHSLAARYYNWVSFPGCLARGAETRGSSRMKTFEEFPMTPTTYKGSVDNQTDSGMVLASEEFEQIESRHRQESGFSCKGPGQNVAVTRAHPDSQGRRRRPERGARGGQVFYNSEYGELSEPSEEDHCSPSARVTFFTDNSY
SMILES,target,test,test system,conditions,inhibition
CN(C)[C@H]1C[C@@]23CC[C@@]4(O2)C(=CC[C@]2(C)[C@@H](c5ccc6ccncc6c5)CC[C@H]24)C=C3[C@@H](O)[C@@H]1O,"Phosphatidylinositol 4-kinase beta (PI4KB, Homo sapiens, UniProt Q9UBF8)","ATP probe labelling, inhibitor, KiNativ profiling",,1 µM,0.2%
CCCC(=O)CC(=O)N[C@H]1CCOC1=O,lasR,"reporter gene, antagonist",Pseudomonas aeruginosa PAO-JP2,"100 µM, plasI-LVAgfp reporter, added: OdDHL 150 nM",51%
Cc1cc(-c2ccc3ccccc3c2)nnc1NCCN1CCN(C)CC1,"3',5'-cyclic-AMP phosphodiesterase 4D (PDE4D, Homo sapiens, UniProt Q08499)",enzyme activity,,10000 nM,4%
CCCCCCCCCC(=O)CC(=O)Nc1ccccc1O,lasR,"reporter gene, antagonist",Escherichia coli JLD271,"10 µM, pSC11 and pJN105L plasmids, added: OdDHL 2 nM",-66%
N[C@H](C(=O)N1CCCC1)C1CCN(c2nccc3c(-c4ncc(Cl)cc4Cl)cccc23)CC1,"Protein-arginine deiminase type-4 (PADI4, Homo sapiens, UniProt Q9UM07)","enzyme activity, GDH-coupled",,"60 µM, added: 1.5 mM Ca2+ (high)",100%
CCOC(=O)[C@](CC)(CCCSCCOCCOCCNC(=O)c1ccc(-c2c3ccc(=N)c(S(=O)(=O)O)c-3oc3c(S(=O)(=O)O)c(N)ccc23)c(C(=O)O)c1)NC(=O)c1ccc(C2CC2)c(Cc2ccc(F)cc2)n1,"cGMP-inhibited 3',5'-cyclic phosphodiesterase 3B (PDE3B, Homo sapiens, UniProt Q13370)","enzyme activity, inhibitor",,10 µM,15%
CC(C)[C@H]1NC(=O)C[C@H]2/C=C/CCSSC[C@@H](NC1=O)C(=O)N[C@H](Cc1cccc3ccccc13)C(=O)NCC(=O)O2,"SRSF protein kinase 3 (SRPK3, Homo sapiens, UniProt Q9UPE1)","enzyme activity, inhibitor",,10 µM,-1.7%
C[C@H](NCc1ccc(-c2ccc(C(F)(F)F)cc2)cc1)C(N)=O,"Cyclin-dependent kinase 19 (CDK19, Homo sapiens, UniProt Q9BWU1)","cell-free assay, competition with immobilised ligand",,1 µM,2%
O=C(CN1CN(c2ccccc2)C2(CCN(C(=O)c3cnc4[nH]ncc4c3)CC2)C1=O)NCC(F)(F)F,"Cyclin-dependent kinase 3 (CDK3, Homo sapiens, UniProt Q00526)",inhibitor,,concentration not given,< 50%
CN(/N=C/c1ccccc1C(=O)O)c1nc(-c2ccccc2Cl)cs1,"Mitogen-activated protein kinase kinase kinase kinase 1 (MAP4K1, Homo sapiens, UniProt Q92918)","enzyme activity, inhibitor",,1 µM,-10.3%
CN[C@@H]1[C@H](O)[C@H](NC)[C@H]2O[C@]3(O)[C@H](O[C@@H]2[C@H]1O)O[C@H](C)C[C@H]3NC(=O)Cc1ccc(Cl)cn1,"Androgen receptor (Ar, Rattus norvegicus, UniProt P15207)","ligand displacement, radioligand",,10 µM,10%
CC(=O)NC[C@@H]1[C@@H](O)C[C@H]2[C@H](O)C[C@@H](CO)N12,β-N-acetylglucosaminidase,"enzyme activity, inhibitor, colorimetric",Canavalia ensiformis,"34.2 nM, added: p-nitrophenyl GlcNAc substrate",70.6% and 73.6%
O=C1c2ccccc2CCCN1CCCCN1CCN(c2cccc(Cl)c2Cl)CC1,"5-hydroxytryptamine receptor 1E (HTR1E, Homo sapiens, UniProt P28566)",radioligand binding,,"concentration not given, added: [3H]5-HT",65.1%
O=C(O)c1ccccc1/C=N/Nc1nc(-c2ccccc2Cl)cs1,"Vascular endothelial growth factor receptor 3 (FLT4, Homo sapiens, UniProt P35916)","enzyme activity, inhibitor",,1 µM,-0.86%
Cc1ccsc1CNc1ccccc1OC1CC(=O)N1 (stereo not shown),Uncharacterized hydrolase SAUSA300_2518,"enzyme activity, inhibitor",,50 µM,52.2%
CCCCCCCCCC(=O)CC(=O)N[C@H]1CCOC1=O,lasR,"reporter gene, antagonist",Pseudomonas aeruginosa PAO-JP2,"100 µM, plasI-LVAgfp reporter, added: OdDHL 150 nM",-98%
OB(O)c1ccc(C(F)(F)F)s1,Uncharacterized hydrolase SAUSA300_2518,"enzyme activity, inhibitor",,50 µM,97.4%
C=CC(=O)Nc1cc(-c2nn(C3CCC(N4CCN(C(C)=O)CC4)CC3)c3ncnc(N)c23)ccc1Oc1ccccc1 (stereo not shown),"Ribosomal protein S6 kinase alpha-3, C-terminal kinase domain (RPS6KA3, Homo sapiens, UniProt P51812)","inhibitor, KiNativ profiling",biochemical,2 µM,2.6%
CCCCCCCCCCCCn1nnc(CC(=O)O)n1,lasR,"reporter gene, antagonist",Pseudomonas aeruginosa PAO-JP2,"100 µM, plasI-LVAgfp reporter, added: OdDHL 150 nM",53%
CS(C)(=O)=Nc1ccc(-c2ccc(-c3nc4cc(O[C@@H]5CO[C@H]6[C@@H]5OC[C@H]6O)[nH]c4cc3F)cc2)cc1,"Homeodomain-interacting protein kinase 2 (HIPK2, Homo sapiens, UniProt Q9H2X6)","enzyme activity, inhibitor",,10 µM,13%
O=C(Cc1ccc(Br)cc1)N[C@H]1CCOC1=O,lasR,"reporter gene, antagonist",Pseudomonas aeruginosa PAO-JP2,"100 µM, plasI-LVAgfp reporter, added: OdDHL 150 nM",44%
CC(=O)NC[C@@H]1C[C@@H](O)[C@H]2[C@H](O)C[C@@H](CO)N12,β-N-acetylglucosaminidase,"enzyme activity, inhibitor, colorimetric",Canavalia ensiformis,"18.8 nM, added: p-nitrophenyl GlcNAc substrate",6.98% and 15%
